Published values gathered from unrelated publications.
± marks the error that the study gave.

Structure (SMILES)	assay	test system	conditions	scale	measurement	value
COc1ccc([C@@H](O)c2cc(-c3ncnc4cc(N5CCOCC5)ccc34)c(F)cc2Cl)nn1	–	locally advanced rectal cancer patients	50 mg, with: capecitabine and radiotherapy	–	gastrointestinal disorder TEAE	100%
N#Cc1ccc2c(c1)[C@H]1CCCN(C(=O)c3ccc4[nH]cnc4c3)[C@H]1C2	–	human	20 mg, day 15	–	mean ACTH level	8.1 pmol/L
CN1CCN(c2cccc3c2CCN(C(=O)/C=C/c2c(-n4cnnn4)ccc(Cl)c2F)[C@@H]3C(=O)Nc2ccc(C(=O)O)cc2)C(=O)C1	–	healthy human subjects	intravenous infusion, 1 mg/h, 5 days	–	subjects with treatment-related adverse event	0%
O=C(Nc1nc2cccc(-c3ccc(CN4CCS(=O)(=O)CC4)cc3)n2n1)C1CC1	measured: animal bite	human rheumatoid arthritis patients	oral, 300 mg once daily, 4 weeks, regardless of relatedness	–	treatment-emergent adverse events	0%
NC(=O)CC[C@@H]1NC(=O)[C@H](Cc2ccccc2)NC(=O)[C@H](Cc2ccc(O)cc2)NC(=O)CCSSC[C@@H](C(=O)N2CCC[C@H]2C(=O)N[C@H](CCCN=C(N)N)C(=O)NCC(N)=O)NC(=O)[C@H](CC(N)=O)NC1=O	–	human plasma	1 months, -20 °C	–	long-term stability deviation	≤ 6.6%
CO[C@H]1C[C@@H]2CC[C@@H](C)[C@@](O)(O2)C(=O)C(=O)N2CCCC[C@H]2C(=O)O[C@H]([C@H](C)C[C@@H]2CC[C@@H](O)[C@H](OC)C2)CC(=O)[C@H](C)/C=C(\C)[C@@H](O)[C@@H](OC)C(=O)[C@H](C)C[C@H](C)/C=C/C=C/C=C/1C	–	healthy adult horses	oral, 0.06 mg/kg, 12 h	–	heart rate	33.5 ± 1.9 beats/min
CC(C)C1=NCCc2ccc(NC(=O)c3cc(Br)c4cc(C(=N)N)ccc4c3)cc21	–	octanol/buffer	pH 11, urokinase ligand set	–	logP	4.18
Cn1c(=O)c2c(ncn2C)n(C)c1=O	–	human, both sexes, cerebrospinal fluid	dose not given, mean	–	CSF concentration	1350 nM
FC(F)(F)c1ccc(CNc2ccc(Cc3c[nH]c4ncc(Cl)cc34)cn2)cn1	–	patients with advanced solid tumours	oral, dose not given, phase Ib, not related to compound	–	adverse events, any	6%
COc1ncc(-c2nc3c(n2C(C)C)[C@H](c2ccc(Cl)cc2)N(c2cc(Cl)cn(C)c2=O)C3=O)c(OC)n1	–	human patients, plasma	oral, 12.5 mg, high-dose arm, cycle 1 day 1	–	median Tmax	3.2 h
O=C(O)CCC(=O)O.[2H]C([2H])([2H])Oc1cc(C)c2[nH]ccc2c1CN1CC[C@@H](C2CC2)C[C@H]1c1ccc(C(=O)O)cc1	–	healthy Chinese subjects	600 mg, single ascending dose	–	TEAE urine bacteria positive	0%
CCCCC/C=C\C/C=C\CCCCCCCC(=O)OCC(COC(=O)CCC(OCCCCCCCC)OCCCCCCCC)COC(=O)OCCCN(CC)CC (stereo not drawn)	–	–	pH 7.5, formulated	–	zeta potential	0 mV
CO[C@H]1C[C@@H]2CC[C@@H](C)[C@@](O)(O2)C(=O)C(=O)N2CCCC[C@H]2C(=O)O[C@H]([C@H](C)C[C@@H]2CC[C@@H](OC(=O)NCCOCCOCCOCCOCCOCCOCCOCCOCCC(=O)N3CCc4cc(Cn5nc(-c6ccc7oc(N)nc7c6)c6c(N)ncnc65)ccc4C3)[C@H](OC)C2)C[C@@H](O)[C@H](C)/C=C(\C)[C@@H](O)[C@@H](OC)C(=O)[C@H](C)C[C@H](C)/C=C/C=C/C=C/1C	–	tumour-bearing xenograft mice, plasma	intraperitoneal, 1 mg/kg, weekly dosing	–	AUClast	21.1 µM·h
CCc1cc(C(=O)NC)c2nccc(N3CCc4c(cc(Cn5ccnc5)cc4-c4cn(C)nc4C(F)(F)F)C3=O)c2c1	–	Sprague Dawley rats	oral, 100 mg/kg twice daily, 7 days	–	serum UREA level	6.7 ± 0.32 mmol/L
C[C@@H](Cn1ccc(-c2ccc(C#N)c(Cl)c2)n1)NC(=O)c1cc([C@@H](C)O)[nH]n1	–	human, fasted	oral, 300 mg darolutamide tablet, geometric mean	–	Vd/F	1.22e+06 mL
Cc1ccc([C@@H]2O[C@H](CO)[C@@H](O)[C@H](O)[C@H]2O)cc1Cc1ccc(-c2ccc(F)cc2)s1	–	Japanese type 2 diabetes patients	200 mg, day 15, 24 h urine collection	relative to: baseline	urinary potassium excretion change	2.98 mEq
Cc1cc(NC2CCN(C(=O)OC3CCN(C(=O)/C=C/CN(C)C)C3)CC2)n2ncc(C(C)C)c2n1 (stereo not drawn)	Phase I dose escalation CTCAE v4.0, measured: Nausea	patients with advanced solid tumours	dose not given, TIW dosing any grade	–	patients with adverse event	36%
CC[C@H](C)[C@@H]1NC(=O)[C@@](C)(NC(=O)[C@H](CCCNC(=N)N)NC(=O)[C@H](CC(C)C)NC(=O)[C@@H](NC(=O)[C@H](CCC(N)=O)NC(=O)[C@H](CC(C)C)NC(C)=O)[C@@H](C)O)CCCC=CCCC[C@@](C)(C(=O)N[C@@H](CC(C)C)C(=O)N[C@@H](Cc2ccc3ccccc3c2)C(N)=O)NC(=O)[C@H](CCCNC(=N)N)NC(=O)[C@H](CCC(N)=O)NC1=O	–	BALB/c mouse	intraperitoneal, 5 mg/kg	–	Vz	0.01 L
CCOc1c([C@H](C)n2nc(C)c3c(N)ncnc32)cc(Cl)c(F)c1[C@@H]1CNC(=O)C1	measured: QTcF above 500 ms	previously treated B-cell malignancy	oral, 45 mg once daily, baseline QTcF ≤450 ms	–	ECG observations	0%

Structure (SMILES)	assay	test system	conditions	scale	measurement	value
Cc1cccc(CNC(=O)c2cn(CCNC(=O)c3ccccc3Sc3c([N+](=O)[O-])ncn3C)c3cc4c(cc3c2=O)OCO4)n1	–	cynomolgus monkey, whole blood	1 µM, 0.25 h	–	remaining compound	99.8%
COc1ccc2c(c1)CN(C(=O)CCN1CCC(Cc3ccccc3)CC1)CC[S@@+]2[O-]	telemetry	conscious dog	intravenous, 4 mg/kg, 1 h	–	heart rate	89 ± 21 beats/min
Cc1ccc([C@@H]2O[C@H](CO)[C@@H](O)[C@H](O)[C@H]2O)cc1Cc1ccc(-c2ccc(F)cc2)s1	–	human haemodialysis patients	–	–	longest half-life	19 h
CC(C)(C)c1ccc(O)c(CN(Cc2cc(C(C)(C)C)ccc2O)C2CCC(NC(N)=O)CC2)c1 (stereo not drawn)	–	C57BL/6 mice, male, brain	intraperitoneal, 25 mg/kg	relative to: 5 mg/kg dose	Cmax fold increase	2.6 fold
CCOCc1nc(O)c(-c2nnc(Cc3ccc(Cl)cn3)o2)c(O)c1-c1c(OC)cccc1OC	–	rat, plasma	subcutaneous infusion, 0.192 mg/kg/day, day 7 after surgery	–	plasma concentration	113 nM
O=S(=O)(NCc1ccccn1)c1ccc(Cl)c(Cl)c1Cl	–	octanol/buffer	pH 11	–	logP	2.19
C[C@H]1CN(C(=O)CC#N)[C@]12CCN(c1ncnc3[nH]ccc13)C2	–	healthy human	oral, 3 mg single	–	subjects with Headache	0%
O=C(COc1ccc(Cl)cc1)NC12CC(c3nnc([C@H]4C[C@@H](OC(F)(F)F)C4)o3)(C1)C2	measured: abnormal haematology test	healthy humans, both sexes	oral, 400 mg, single ascending dose	relative to: subjects	treatment-emergent adverse events	16.7%
COc1ccc(C(O)COc2ccc(-c3csc(-c4ccc(OCC(O)c5ccc(OC)c(OC)c5)cc4)n3)cc2)cc1OC (stereo not drawn)	–	C57BL/6J mice, plasma	oral, 75 mg/kg	–	tlast	48 h
CNCc1ccc(-c2[nH]c3cc(F)cc4c3c2CCNC4=O)cc1	–	patients	oral, 600 mg twice daily, grade 4	–	decreased appetite incidence	0%
COc1ccc2c(C)nc(Nc3nc(C)cc(O)n3)nc2c1	–	octanol/buffer	pH 11	–	logP	1.61
C[C@H]1O[C@@H](O[C@H]2[C@@H](O)C[C@H](O[C@H]3[C@@H](O)C[C@H](O[C@H]4CC[C@@]5(C)[C@H](CC[C@@H]6[C@@H]5C[C@@H](O)[C@]5(C)[C@@H](C7=CC(=O)OC7)CC[C@]65O)C4)O[C@@H]3C)O[C@@H]2C)C[C@H](O)[C@@H]1O	measured: vessel puncture site pain	healthy men	oral, dose not given, 8 days, treatment-emergent, crossover trial	–	subjects with adverse event	0%
CNC(=O)c1ccc(-c2cnc3ncc(Cc4ccc5ncccc5c4)n3n2)cc1F	–	Japanese patients	oral, 400 mg twice daily, grade 3/4	–	Tremor patients	0%
CC(C)(C(=O)N1CCOc2c(C#N)cncc2C1)C(F)F	–	human, both sexes, plasma	oral, 10 mg once daily, 14 days, multiple ascending dose	relative to: day 14 over day 1	accumulation ratio Cmax	1
CC(C)n1c(Nc2cccnc2)nc2cnc(Nc3ccc(N4CCN(C)CC4)cc3)nc21	measured: LDL cholesterol increased	healthy male subjects	oral, 100 mg, study, with: itraconazole	–	subjects with adverse event	0%
CC(C)C[C@H](NC(=O)[C@@H](Cc1c[nH]c2ccccc12)NC(=O)[C@H](Cc1ccc(O)cc1)NC(=O)[C@H](CO)NC(=O)[C@H](Cc1c[nH]c2ccccc12)NC(=O)[C@H](Cc1c[nH]cn1)NC(=O)[C@@H]1CCC(=O)N1)C(=O)N[C@@H](CCCNC(=N)N)C(=O)N1CCC[C@H]1C(=O)NCC(N)=O	–	Chinese CPP children	intramuscular, 22.5 mg, 12 months, day 1, month 6	–	patients, drug-related Obesity TEAEs	3%
O=C(Cc1ccc(OC(F)(F)F)cc1)Nc1cc(C2CC2)[nH]n1	–	octanol/buffer	pH 11	–	logP	3.77
CN(C)C(=O)c1cc2cnc(Nc3ccc(-c4ccc5c(=O)cc(N6CCOCC6)oc5c4)cc3)nc2n1C1CCCC1.Cl	–	Balb/c mouse, plasma	intravenous, 2 mg/kg	–	Vz	3 ± 0.7 L/kg
COCCOc1cnc2ccn([C@H](C)c3nnc4c(F)cc(-c5cnn(C)c5)cn34)c(=O)c2c1	–	patients, plasma	oral, 25 mg once daily, day 1 24 h postdose	–	Ctrough	30 ng/mL

Structure (SMILES)	assay	test system	conditions	scale	measurement	value
COc1cc(C(=O)N2CCC3(CC2)CC(=O)c2c(cnn2C(C)C)C3)cc(-c2ccc(C(=O)O)cc2)n1	measured: direct LDL cholesterol	human, fasting serum	100 mg every 12 h, day 13, adjusted geometric mean	relative to: baseline and placebo	placebo-adjusted change from baseline	-7.2%
Cc1cc(-c2nccc3c2ccn3CC(=O)Nc2ccc(-c3cnccn3)cn2)ccn1	–	human	MAD part, 5 mg once daily	–	subjects with eye disorders TEAEs	12.5%
OC[C@H]1OC(O)[C@H](O)[C@@H](O)[C@@H]1O (stereo partly drawn)	–	aqueous solution	50 mM, with: glucosamine	–	osmolality	46 mOsmol/kg
CCN1/C(=C/C(C)=O)Sc2ccc(F)cc21	–	cynomolgus monkey	oral, 10 mg/kg, 6 h post-dose	relative to: pre-dose	heart rate change	103 ± 26.7%
C[C@@H]1CCO[C@H]2Cn3cc(C(=O)NCc4ccc(F)cc4F)c(=O)c(O)c3C(=O)N12	–	Tat+ transgenic mouse, striatum	subcutaneous osmotic pump, dose not given, 5 d	–	drug concentration	5300 ± 1400 ng/g
NC1(C(=O)N[C@@H](CCO)c2ccc(Cl)cc2)CCN(c2nc[nH]c3nccc2-3)CC1	–	metastatic CRPC patients	320 mg b.i.d., grade 3 to 4, treatment-related, with: enzalutamide 160 mg daily	–	incidence of Leukopenia	0%
Cn1cnc2c(F)c(Nc3ccc(Br)cc3Cl)c(C(=O)NOCCO)cc21	population PK model	human, plasma	oral, zero-order absorption model, fed	–	zero-order absorption duration	5.81 h
CCn1cc(C(=O)N2CCOCC2)c(=O)c2cc(NC3Cc4ccccc4C3)cnc21	–	human, fed	oral suspension, 600 mg single dose, median	–	Tmax	6 h
CCCCOC(=O)N1CCN(C(=O)[C@H](CP(=O)(O)O)NC(=O)c2cc(N3CC[C@H](OC)C3)nc(-c3ccccc3)n2)CC1	measured: urate	human, serum	8 mg, 24 h post-dose	–	change from baseline	-5.8 ± 26 µmol/L
CC[C@@](N)(c1cnc(C(F)(F)F)c(Cl)c1)c1c2ncn(C3CC3)c(=O)c2nn1C	–	rat Sprague-Dawley male, blood	intravenous, 1 mg/kg	–	CLint,u	1.9 mL/min/kg
Cc1ccc(Sc2ccccc2N2CCNCC2)c(C)c1	measured: metrorrhagia	healthy adult women	oral, 10 mg daily, 12 days	–	participants with TEAE	16.7%
C[C@@H](Nc1cc(F)cc(F)c1)c1cc(C(=O)N(C)C)cc2c(=O)cc(N3CCOCC3)oc12	measured: Fatigue	advanced solid tumour patients	oral, dose not given, dose finding	–	related serious adverse events	0%
O=S(=O)(O)Oc1c(O)cccc1O	–	human, cerebrospinal fluid	concentration not given, median	–	CSF concentration	2.1 nM
CCN(CC)CCNC(=O)c1c(C)[nH]c(/C=C2\C(=O)Nc3ccc(F)cc32)c1C	LC-MS	human, serum	25 mg, 24 h	–	serum concentration	57.3 ng/mL
COc1ccc2nc(COc3ccc(CC4SC(=O)NC4=O)cc3)n(C)c2c1 (stereo not drawn)	–	octanol/buffer	67 µM, pH 11	–	logP	2.86
CCO[C@H]1CCN(Cc2c(OC)cc(C)c3[nH]ccc23)[C@H](c2ccc(C(=O)O)cc2)C1	–	PNH patients, active haemolysis	oral, 100 mg, 8 weeks, treatment	–	incidence of cough	14.3%
Cc1cc(C)c(S(=O)(=O)NCc2ccccn2)cc1C	–	octanol/buffer	pH 11, known kinase inactives set	–	logP	2.55
Cc1c(C(=O)O)ccc2c3n(nc12)[C@@H]1[C@H](C3)N(CC2CC2)[C@@]2(C(=O)Nc3cc(Cl)ccc32)[C@H]1c1cccc(Cl)c1F	–	female BALB/c nude mice, SJSA-1 xenograft, plasma	oral, 1 mg/kg twice daily, 14 h	–	plasma concentration	1000 nM
N#C[C@@]12C[C@@H]1[C@@H](n1cnc3c(N[C@@H](C4CCC4)C4CC4)nc(I)nc31)[C@H](O)[C@@H]2O	–	Wistar rats male, plasma	oral, 1.0 mg/kg	–	elimination rate constant	8.75e-05 s⁻¹

Repeated from above:
Structure (SMILES)	assay	test system	conditions	scale	measurement	value
CCCCOC(=O)N1CCN(C(=O)[C@H](CP(=O)(O)O)NC(=O)c2cc(N3CC[C@H](OC)C3)nc(-c3ccccc3)n2)CC1	measured: urate	human, serum	8 mg, 24 h post-dose	–	change from baseline	-5.8 ± 26 µmol/L
CC[C@@](N)(c1cnc(C(F)(F)F)c(Cl)c1)c1c2ncn(C3CC3)c(=O)c2nn1C	–	rat Sprague-Dawley male, blood	intravenous, 1 mg/kg	–	CLint,u	1.9 mL/min/kg
Cc1ccc(Sc2ccccc2N2CCNCC2)c(C)c1	measured: metrorrhagia	healthy adult women	oral, 10 mg daily, 12 days	–	participants with TEAE	16.7%
C[C@@H](Nc1cc(F)cc(F)c1)c1cc(C(=O)N(C)C)cc2c(=O)cc(N3CCOCC3)oc12	measured: Fatigue	advanced solid tumour patients	oral, dose not given, dose finding	–	related serious adverse events	0%
